{"data": "Assay results gathered from unrelated publications", "note": "A part holds a random share of what one study measured. “And” joins repeats or separate records; there may be more than shown.", "UniProt Q13705, sequence (whole entry, looked up)": "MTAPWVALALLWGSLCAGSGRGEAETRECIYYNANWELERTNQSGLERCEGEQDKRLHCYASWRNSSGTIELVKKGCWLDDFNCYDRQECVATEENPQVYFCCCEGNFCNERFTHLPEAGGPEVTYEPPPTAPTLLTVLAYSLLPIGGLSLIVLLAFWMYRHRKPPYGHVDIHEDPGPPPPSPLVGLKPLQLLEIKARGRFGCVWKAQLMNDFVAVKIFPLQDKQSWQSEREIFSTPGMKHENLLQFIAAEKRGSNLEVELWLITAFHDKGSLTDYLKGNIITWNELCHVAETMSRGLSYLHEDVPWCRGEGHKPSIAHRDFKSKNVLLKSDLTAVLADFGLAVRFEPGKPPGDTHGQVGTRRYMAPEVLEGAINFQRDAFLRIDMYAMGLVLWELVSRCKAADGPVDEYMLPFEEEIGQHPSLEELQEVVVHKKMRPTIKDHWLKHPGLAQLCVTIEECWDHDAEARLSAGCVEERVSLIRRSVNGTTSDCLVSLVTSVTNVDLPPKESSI", "UniProt P11362, sequence (whole entry, looked up)": "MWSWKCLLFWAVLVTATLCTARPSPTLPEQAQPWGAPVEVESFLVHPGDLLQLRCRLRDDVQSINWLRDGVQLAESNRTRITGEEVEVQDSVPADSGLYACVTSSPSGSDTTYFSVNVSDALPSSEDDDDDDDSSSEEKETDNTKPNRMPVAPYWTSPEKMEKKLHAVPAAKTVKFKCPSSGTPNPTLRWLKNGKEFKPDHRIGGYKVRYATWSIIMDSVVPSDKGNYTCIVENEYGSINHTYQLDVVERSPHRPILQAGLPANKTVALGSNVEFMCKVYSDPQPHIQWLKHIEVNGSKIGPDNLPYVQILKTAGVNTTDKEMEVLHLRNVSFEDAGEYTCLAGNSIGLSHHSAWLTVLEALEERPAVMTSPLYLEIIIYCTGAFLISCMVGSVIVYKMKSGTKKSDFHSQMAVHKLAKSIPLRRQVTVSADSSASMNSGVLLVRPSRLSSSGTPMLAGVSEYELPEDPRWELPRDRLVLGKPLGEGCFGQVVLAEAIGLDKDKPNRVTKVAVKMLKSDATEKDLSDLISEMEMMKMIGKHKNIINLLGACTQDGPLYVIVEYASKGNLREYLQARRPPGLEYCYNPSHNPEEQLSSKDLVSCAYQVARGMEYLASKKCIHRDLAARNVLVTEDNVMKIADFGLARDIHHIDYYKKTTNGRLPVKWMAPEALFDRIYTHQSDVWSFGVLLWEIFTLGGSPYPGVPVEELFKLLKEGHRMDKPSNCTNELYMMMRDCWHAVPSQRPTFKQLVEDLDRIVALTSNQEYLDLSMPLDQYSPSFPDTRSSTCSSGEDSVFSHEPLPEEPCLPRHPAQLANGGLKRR"}
{"data": "Study 1", "target": "DNA polymerase theta, helicase domain (POLQ, Homo sapiens, UniProt O75417)", "mode": "inhibitor", "concentration": "concentration not given", "with": "without ssDNA", "UniProt O75417, sequence (whole entry, looked up)": "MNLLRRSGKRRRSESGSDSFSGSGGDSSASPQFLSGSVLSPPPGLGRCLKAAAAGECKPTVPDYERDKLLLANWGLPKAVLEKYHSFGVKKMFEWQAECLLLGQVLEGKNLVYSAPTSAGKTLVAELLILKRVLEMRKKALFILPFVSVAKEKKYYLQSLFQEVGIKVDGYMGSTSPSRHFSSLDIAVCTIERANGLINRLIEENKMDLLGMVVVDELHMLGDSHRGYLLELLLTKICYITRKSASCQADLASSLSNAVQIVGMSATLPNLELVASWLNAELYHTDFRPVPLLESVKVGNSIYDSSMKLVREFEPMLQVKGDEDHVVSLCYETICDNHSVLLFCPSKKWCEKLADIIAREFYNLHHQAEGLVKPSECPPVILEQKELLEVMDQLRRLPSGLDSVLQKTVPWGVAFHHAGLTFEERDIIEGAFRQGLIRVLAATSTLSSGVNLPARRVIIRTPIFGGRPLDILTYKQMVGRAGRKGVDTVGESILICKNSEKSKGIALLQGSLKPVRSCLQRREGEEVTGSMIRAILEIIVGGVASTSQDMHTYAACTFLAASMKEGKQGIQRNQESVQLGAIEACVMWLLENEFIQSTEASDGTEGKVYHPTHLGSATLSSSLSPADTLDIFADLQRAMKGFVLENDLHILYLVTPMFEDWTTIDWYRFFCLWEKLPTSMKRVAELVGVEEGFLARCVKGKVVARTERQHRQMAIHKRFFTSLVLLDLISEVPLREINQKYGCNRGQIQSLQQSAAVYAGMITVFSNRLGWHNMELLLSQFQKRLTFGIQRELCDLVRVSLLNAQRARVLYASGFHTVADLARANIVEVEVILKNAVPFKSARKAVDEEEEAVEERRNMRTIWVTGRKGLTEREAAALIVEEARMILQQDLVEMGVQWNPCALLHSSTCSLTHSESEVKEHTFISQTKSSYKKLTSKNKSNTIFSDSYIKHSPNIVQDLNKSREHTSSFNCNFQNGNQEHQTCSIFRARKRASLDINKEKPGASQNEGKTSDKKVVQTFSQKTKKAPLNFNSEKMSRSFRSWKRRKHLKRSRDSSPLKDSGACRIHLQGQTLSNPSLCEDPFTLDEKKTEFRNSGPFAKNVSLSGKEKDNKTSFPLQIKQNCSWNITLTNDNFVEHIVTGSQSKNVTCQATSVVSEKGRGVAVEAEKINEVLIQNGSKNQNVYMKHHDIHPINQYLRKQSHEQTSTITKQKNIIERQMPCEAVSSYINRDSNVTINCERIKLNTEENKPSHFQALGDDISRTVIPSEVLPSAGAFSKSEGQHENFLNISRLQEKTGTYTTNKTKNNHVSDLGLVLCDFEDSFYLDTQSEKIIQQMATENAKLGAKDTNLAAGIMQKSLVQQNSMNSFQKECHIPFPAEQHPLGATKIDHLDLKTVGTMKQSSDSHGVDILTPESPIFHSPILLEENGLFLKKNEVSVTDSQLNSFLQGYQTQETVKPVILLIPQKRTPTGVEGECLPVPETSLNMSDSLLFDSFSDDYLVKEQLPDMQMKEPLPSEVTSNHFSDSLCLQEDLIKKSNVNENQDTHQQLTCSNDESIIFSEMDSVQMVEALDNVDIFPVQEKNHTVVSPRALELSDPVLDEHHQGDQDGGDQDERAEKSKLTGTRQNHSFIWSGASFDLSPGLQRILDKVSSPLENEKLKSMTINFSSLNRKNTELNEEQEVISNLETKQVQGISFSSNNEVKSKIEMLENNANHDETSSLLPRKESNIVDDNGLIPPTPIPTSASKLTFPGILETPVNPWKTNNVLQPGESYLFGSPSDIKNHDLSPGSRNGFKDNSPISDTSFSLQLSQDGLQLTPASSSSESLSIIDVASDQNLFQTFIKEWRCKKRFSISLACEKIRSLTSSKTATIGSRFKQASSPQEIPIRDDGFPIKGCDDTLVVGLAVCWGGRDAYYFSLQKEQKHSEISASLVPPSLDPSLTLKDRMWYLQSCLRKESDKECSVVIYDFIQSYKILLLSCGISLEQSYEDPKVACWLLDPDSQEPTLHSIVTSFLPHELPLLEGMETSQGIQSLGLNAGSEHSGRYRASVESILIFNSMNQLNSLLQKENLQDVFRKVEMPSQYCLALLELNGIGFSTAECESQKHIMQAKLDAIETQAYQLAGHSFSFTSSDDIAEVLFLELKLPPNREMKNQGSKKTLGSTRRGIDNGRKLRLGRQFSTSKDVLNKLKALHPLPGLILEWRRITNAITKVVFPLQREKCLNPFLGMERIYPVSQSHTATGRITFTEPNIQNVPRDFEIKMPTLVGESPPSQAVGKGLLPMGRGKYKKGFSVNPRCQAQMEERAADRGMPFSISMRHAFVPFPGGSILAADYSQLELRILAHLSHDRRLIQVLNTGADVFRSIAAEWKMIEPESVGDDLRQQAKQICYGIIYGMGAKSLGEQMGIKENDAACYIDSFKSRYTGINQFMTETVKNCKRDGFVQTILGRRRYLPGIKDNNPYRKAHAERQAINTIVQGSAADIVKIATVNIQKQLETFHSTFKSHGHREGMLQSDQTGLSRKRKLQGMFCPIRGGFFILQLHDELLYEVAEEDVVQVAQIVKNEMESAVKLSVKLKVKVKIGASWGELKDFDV"}
{"SMILES": "CCCCCCCC/C=C\\CCCCCCCC(=O)O", "remaining activity": "97.4% and 99.8%"}
{"SMILES": "O=C1c2c(O)ccc(O)c2C(=O)c2c(NCCNCCO)ccc(NCCNCCO)c21", "remaining activity": "94.1% and 93.4%"}
{"SMILES": "O=C(O)C1=CC(=C(c2ccc(O)c(C(=O)O)c2)c2ccc(O)c(C(=O)O)c2)C=CC1=O", "remaining activity": "8.58% and 9.2%"}
{"SMILES": "Cc1ccccc1C(=O)Nc1sc2c(c1C(=O)O)CCC(C(C)(C)C)C2 (centres unmarked)", "remaining activity": "30.2% and 30.7%"}
{"SMILES": "CCCCCCCCCCCCc1ccc(S(=O)(=O)Nc2nncs2)cc1", "remaining activity": "93.9% and 91%"}
{"SMILES": "COc1cc(NC(=O)CSc2ncc(S(=O)(=O)c3ccc(Br)cc3)c(=O)[nH]2)cc(OC)c1", "remaining activity": "98.7% and 93.8%"}
{"SMILES": "Cc1c(Cl)cccc1NC(=O)CSc1ncc(S(=O)(=O)c2ccc(C(C)C)cc2)c(=O)[nH]1", "remaining activity": "94% and 88.5%"}
{"SMILES": "Cc1ccc(C(=O)Nc2ccc(S(=O)(=O)[O-])c3cc(S(=O)(=O)[O-])cc(S(=O)(=O)[O-])c23)cc1NC(=O)c1cccc(NC(=O)Nc2cccc(C(=O)Nc3cc(C(=O)Nc4ccc(S(=O)(=O)[O-])c5cc(S(=O)(=O)[O-])cc(S(=O)(=O)[O-])c45)ccc3C)c2)c1.[Na+].[Na+].[Na+].[Na+].[Na+].[Na+]", "remaining activity": "14.7% and 14.3%"}
{"SMILES": "CC[N+](C)(CC)CCC[n+]1c(-c2ccccc2)c2cc(N)ccc2c2ccc(N)cc21", "remaining activity": "114% and 107%"}
{"SMILES": "Cc1noc(C)c1S(=O)(=O)Nc1ccc(C(=O)Nc2ccc(Br)cc2)cc1", "remaining activity": "82.1% and 74%"}
{"SMILES": "O=C(Nc1ccccc1F)c1ccc2c(Cl)c3c(nc2c1)CCC3", "remaining activity": "82.5% and 85.9%"}
{"SMILES": "COc1ccc(C(=O)Nc2noc3ccccc23)cc1", "remaining activity": "65.8% and 61.8%"}
{"data": "Study 2", "target": "Bromodomain-containing protein 4, BD1 (BRD4, Homo sapiens, UniProt O60885)", "effect on": "acetyl-histone H4 peptide binding", "technique": "AlphaScreen displacement", "concentration": "50 µM"}
{"Structure (SMILES)": "O=C(Nc1cc(C(F)(F)F)ccc1N1CCCCC1)c1ccncc1", "inhibition [%]": 8.45}
{"Structure (SMILES)": "Nc1nc(Nc2ccccc2F)sc1C(=O)c1ccc(Br)cc1", "inhibition [%]": 59.9}
{"Structure (SMILES)": "CN(C)c1cccc(-c2nc(-c3ccncc3)cnc2N)c1", "inhibition [%]": 38.4}
{"Structure (SMILES)": "O=C1Nc2ccc(Br)cc2C1=CC(=O)c1ccc(F)cc1", "inhibition [%]": 69.7}
{"Structure (SMILES)": "N#CC(=Cc1ccncc1)c1nc2ccccc2o1", "inhibition [%]": 21.9}
{"Structure (SMILES)": "O=C1Nc2ccc(Br)cc2/C1=C/c1cc2c([nH]1)CCCC2", "inhibition [%]": 49.4}
{"Structure (SMILES)": "O=C1NC(=O)C(c2c[nH]c3ccccc23)=C1c1c[nH]c2ccccc12", "inhibition [%]": 81}
{"Structure (SMILES)": "O=C1NC(=O)C(=Cc2ccc3c(c2)OC(F)(F)O3)S1", "inhibition [%]": 2.55}
{"Structure (SMILES)": "O=CNc1cccc2c1sc1nc[nH]c(=O)c12", "inhibition [%]": 10.6}
{"Structure (SMILES)": "N#CC(=C(N)Sc1ccccc1N)C(C#N)=C(N)Sc1ccccc1N", "inhibition [%]": 14.6}
{"Structure (SMILES)": "CCc1cc(Nc2nccc(-c3c(-c4ccc(OC)c(C(=O)Nc5c(F)cccc5F)c4)nc4ccccn34)n2)c(OC)cc1N1CCC(N2CCN(S(C)(=O)=O)CC2)CC1", "inhibition [%]": 33.2}
{"Structure (SMILES)": "Cc1ccc(Nc2ncc(-c3ccncc3)n3ccnc23)cc1", "inhibition [%]": 5.35}
{"Structure (SMILES)": "Cn1c(=O)c(C(=O)NNS(=O)(=O)c2ccc(Br)cc2)c(O)c2ccccc21", "inhibition [%]": 0.85}
{"Structure (SMILES)": "N#CC(=Cc1ccncc1)c1nc2cc(C(F)(F)F)ccc2s1", "inhibition [%]": 48.3}
{"Structure (SMILES)": "Oc1cc(O)cc(/C=C/c2ccc(O)c(O)c2)c1", "inhibition [%]": 38.2}
{"Structure (SMILES)": "O=c1[nH]cnc2ccc(NC(=S)Nc3cccc4ccccc34)cc12", "inhibition [%]": 29.1}
{"data": "Study 3", "SMILES": "C[C@H](c1ccnc(Nc2nc3ccc(-c4cc(N(C)C)ncn4)cc3[nH]2)c1)N1CCN(C(=O)CC(F)(F)F)CC1", "technique": "competition with immobilised ligand", "concentration": "0.1 µM"}
{"target": "Fibroblast growth factor receptor 1 (FGFR1, Homo sapiens, UniProt P11362)", "test": "cell-free assay", "remaining binding [%]": 100}
{"target": "Proto-oncogene tyrosine-protein kinase receptor Ret (RET, Homo sapiens, UniProt P07949, M918T)", "test": "cell-free assay", "remaining binding [%]": 86}
{"target": "Tyrosine-protein kinase ABL2 (ABL2, Homo sapiens, UniProt P42684)", "test": "cell-free assay", "remaining binding [%]": 100}
{"target": "Cyclin-dependent kinase-like 5 (CDKL5, Homo sapiens, UniProt O76039)", "test": "binding", "remaining binding [%]": 100}
{"target": "Dual specificity mitogen-activated protein kinase kinase 5 (MAP2K5, Homo sapiens, UniProt Q13163)", "test": "binding", "remaining binding [%]": 8.5}
{"target": "Ribosomal protein S6 kinase beta-1 (RPS6KB1, Homo sapiens, UniProt P23443)", "test": "cell-free assay", "remaining binding [%]": 100}
{"target": "Receptor-type tyrosine-protein kinase FLT3 (FLT3, Homo sapiens, UniProt P36888, D835V/ITD)", "test": "cell-free assay", "remaining binding [%]": 64}
{"target": "Tyrosine-protein kinase ABL1, phosphorylated (ABL1, Homo sapiens, UniProt P00519, Y253F)", "test": "cell-free assay", "remaining binding [%]": 91}
{"target": "Tyrosine-protein kinase ABL1, non-phosphorylated (ABL1, Homo sapiens, UniProt P00519, Q252H)", "test": "cell-free assay", "remaining binding [%]": 94}
{"target": "Serine/threonine-protein kinase RIO1 (RIOK1, Homo sapiens, UniProt Q9BRS2)", "test": "cell-free assay", "remaining binding [%]": 100}
{"target": "LIM domain kinase 1 (LIMK1, Homo sapiens, UniProt P53667)", "test": "cell-free assay", "remaining binding [%]": 100}
{"target": "Bone morphogenetic protein receptor type-1B (BMPR1B, Homo sapiens, UniProt O00238)", "test": "cell-free assay", "remaining binding [%]": 86}
{"target": "Cyclin-dependent kinase-like 3 (CDKL3, Homo sapiens, UniProt Q8IVW4)", "test": "binding", "remaining binding [%]": 86}
{"target": "Tyrosine-protein kinase ABL1, phosphorylated (ABL1, Homo sapiens, UniProt P00519)", "test": "cell-free assay", "remaining binding [%]": 85}
{"target": "Serine/threonine-protein kinase PAK 3 (PAK3, Homo sapiens, UniProt O75914)", "test": "cell-free assay", "remaining binding [%]": 100}
{"target": "Mitogen-activated protein kinase 3 (MAPK3, Homo sapiens, UniProt P27361)", "test": "cell-free assay", "remaining binding [%]": 89}
{"target": "Serine/threonine-protein kinase RIO2 (RIOK2, Homo sapiens, UniProt Q9BVS4)", "test": "cell-free assay", "remaining binding [%]": 100}
{"target": "Activin receptor type-2B (ACVR2B, Homo sapiens, UniProt Q13705)", "test": "binding", "remaining binding [%]": 81}
{"target": "Epidermal growth factor receptor (EGFR, Homo sapiens, UniProt P00533, G719S)", "test": "cell-free assay", "remaining binding [%]": 91}
{"target": "Macrophage colony-stimulating factor 1 receptor (CSF1R, Homo sapiens, UniProt P07333)", "test": "cell-free assay", "remaining binding [%]": 100}
{"target": "Hepatocyte growth factor receptor (MET, Homo sapiens, UniProt P08581, M1250T)", "test": "cell-free assay", "remaining binding [%]": 93}
{"target": "Serine/threonine-protein kinase PLK4 (PLK4, Homo sapiens, UniProt O00444)", "test": "cell-free assay", "remaining binding [%]": 96}
{"target": "Receptor-type tyrosine-protein kinase FLT3, autoinhibited (FLT3, Homo sapiens, UniProt P36888)", "test": "cell-free assay", "remaining binding [%]": 95}
{"data": "Study 4", "target": "Activated CDC42 kinase 1 (TNK2, Homo sapiens, UniProt Q07912)", "effect on": "enzyme activity", "mode": "inhibitor", "concentration": "0.5 µM", "reference": "control", "UniProt Q07912, sequence (whole entry, looked up)": "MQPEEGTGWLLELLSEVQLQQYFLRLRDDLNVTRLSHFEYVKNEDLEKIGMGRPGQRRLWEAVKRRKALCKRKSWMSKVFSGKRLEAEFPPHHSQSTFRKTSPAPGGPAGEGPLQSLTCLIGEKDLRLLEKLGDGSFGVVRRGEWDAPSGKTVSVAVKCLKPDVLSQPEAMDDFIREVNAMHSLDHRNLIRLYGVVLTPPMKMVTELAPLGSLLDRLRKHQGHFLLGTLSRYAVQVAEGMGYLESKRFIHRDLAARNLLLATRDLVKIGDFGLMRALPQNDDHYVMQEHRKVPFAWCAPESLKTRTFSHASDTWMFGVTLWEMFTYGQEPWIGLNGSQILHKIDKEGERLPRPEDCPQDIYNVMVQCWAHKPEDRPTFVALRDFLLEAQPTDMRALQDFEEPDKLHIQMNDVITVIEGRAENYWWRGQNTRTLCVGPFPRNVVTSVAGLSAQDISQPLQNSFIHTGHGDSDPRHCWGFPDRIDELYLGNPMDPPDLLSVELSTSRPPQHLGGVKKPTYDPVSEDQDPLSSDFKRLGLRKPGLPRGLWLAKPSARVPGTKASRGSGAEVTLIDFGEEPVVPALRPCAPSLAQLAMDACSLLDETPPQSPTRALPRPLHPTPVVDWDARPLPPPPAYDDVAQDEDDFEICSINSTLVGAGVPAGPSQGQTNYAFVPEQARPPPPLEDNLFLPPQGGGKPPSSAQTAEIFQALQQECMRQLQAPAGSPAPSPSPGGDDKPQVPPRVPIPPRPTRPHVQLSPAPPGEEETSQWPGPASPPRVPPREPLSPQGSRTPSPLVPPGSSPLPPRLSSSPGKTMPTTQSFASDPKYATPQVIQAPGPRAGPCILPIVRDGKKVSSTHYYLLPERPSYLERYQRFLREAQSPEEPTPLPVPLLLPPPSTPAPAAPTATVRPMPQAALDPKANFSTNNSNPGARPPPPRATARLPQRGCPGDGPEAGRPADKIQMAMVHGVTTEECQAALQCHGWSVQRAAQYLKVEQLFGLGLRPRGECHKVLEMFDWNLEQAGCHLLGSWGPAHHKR"}
{"SMILES": "CCCNC(=O)Nc1ccc(Oc2ncnc3cc(OC)c(OC)cc23)cc1Cl", "remaining activity [%]": 96.5}
{"SMILES": "O=C(c1cc2cc(O)ccc2[nH]1)c1cc2cc(O)ccc2[nH]1", "remaining activity [%]": 90.6}
{"SMILES": "O=C1NC(=O)c2c1c1c3ccccc3[nH]c1n1cncc21", "remaining activity [%]": 41.3}
{"SMILES": "Cc1cc(Nc2cc(N3CCN(C)CC3)nc(Sc3ccc(NC(=O)C4CC4)cc3)n2)[nH]n1", "remaining activity [%]": 66.4}
{"SMILES": "c1ccc2c(-c3ccncc3)c[nH]c2c1", "remaining activity [%]": 96.1}
{"SMILES": "Oc1cccc(-c2nc(N3CCOCC3)c3oc4ncccc4c3n2)c1", "remaining activity [%]": 89.6}
{"SMILES": "COc1cccc(-c2cc(=O)c3ccccc3o2)c1N", "remaining activity [%]": 79.9}
{"SMILES": "O=C1Cc2c([nH]c3ccc(Br)cc23)-c2ccccc2N1", "remaining activity [%]": 38.8}
{"SMILES": "O=C1NC(=O)c2c1c1c3ccccc3[nH]c1c1[nH]c3cc(Br)ccc3c21", "remaining activity [%]": 97.4}
{"SMILES": "O=c1cc(N2CCOCC2)oc2c(-c3ccccc3)cccc12", "remaining activity [%]": 88.7}
{"SMILES": "COc1ccc2c(c1)c(C1=C(c3c[nH]c4ccccc34)C(=O)NC1=O)cn2CCCN(C)C", "remaining activity [%]": 77.9}
{"SMILES": "CCCCc1c(-c2ccc(OC)cc2)[nH]c2nccnc12", "remaining activity [%]": 51.2}
{"SMILES": "CN(C)S(=O)(=O)c1ccc2c(c1)/C(=C/c1cc3c([nH]1)CCCC3)C(=O)N2", "remaining activity [%]": 12.6}
{"SMILES": "O=C1Nc2ccc(Br)cc2/C1=C/c1cc2c([nH]1)CCCC2", "remaining activity [%]": 92.8}
